{"data": "Measured values of several laboratories", "organism": "Pseudomonas aeruginosa", "note": "Protocols differ between the studies behind these lines."}
{"SMILES": "CCCCCCCCCCCCCCCC(=O)NCCCC[C@@H]1NC(=O)[C@H](CCCNC(=N)N)NC(=O)[C@H](CCCNC(=N)N)NC(=O)[C@H](CCCNC(=N)N)NC(=O)[C@H](CCCNC(=N)N)NC(=O)[C@H](CCCNC(=N)N)NC1=O", "technique": "broth microdilution", "strain": "PAO1", "temperature": "37 °C", "MIC": "> 143 µg/mL"}
{"SMILES": "c1ccc(CCNC2CCCc3c2[nH]c2ccc(C4CCCCC4)cc32)cc1 (stereo not drawn)", "effect on": "microbial growth", "technique": "broth dilution", "strain": "ATCC10145", "MIC": "> 41 µg/mL"}
{"SMILES": "CC(C)[C@H](NC(=O)[C@H]1NC(=O)[C@H](CO)NC(=O)[C@H](CC(N)=O)NC(=O)[C@@H](N)Cc2c[nH]c3cc(ccc23)C1C(N)=O)C(=O)N[C@H]1Cc2cn(cn2)C(c2ccc(O)cc2)[C@@H](C(=O)N[C@@H](CCCNC(=N)N)C(=O)N[C@@H](Cc2ccccc2)C(=O)O)NC(=O)[C@H](CO)NC1=O (stereo partly drawn)", "strain": "PA14", "MIC": "16 µg/mL"}
{"SMILES": "CC(C)[C@H](NC(=O)[C@H](CCCCN)NC(=O)[C@H](CCCNC(=N)N)NC(=O)CNC(=O)[C@H](C)NC(=O)[C@H](CC(N)=O)NC(=O)[C@H](CCCNC(=N)N)NC(=O)[C@@H](NC(=O)[C@H](CCCCN)NC(=O)[C@H](CC(=O)O)NC(=O)[C@@H](NC(=O)[C@@H](NC(=O)[C@H](CCCNC(=N)N)NC(=O)[C@H](CCCNC(=N)N)NC(=O)[C@H](Cc1c[nH]c2ccccc12)NC(=O)[C@H](Cc1c[nH]c2ccccc12)NC(=O)CN)[C@@H](C)O)C(C)C)C(C)C)C(=O)O", "strain": "CMCC 10104", "time": "18 h", "temperature": "37 °C", "MIC": "> 256 µg/mL"}
{"SMILES": "CC[C@H](C)[C@H](NC(=O)[C@@H](CCCNC(=N)N)NC(=O)[C@H](CCCNC(=N)N)NC(=O)[C@H](CCCNC(=N)N)NC(=O)[C@H](Cc1c[nH]c2ccccc12)NC(=O)[C@H](CCCNC(=N)N)NC(=O)[C@@H]1CCCN1C(=O)[C@H](CCCNC(=N)N)NC(=O)[C@@H]1CCCN1C(=O)[C@H](CC(C)C)NC(=O)[C@H](Cc1ccc(O)cc1)NC(=O)[C@@H]1CCCN1C(=O)[C@@H]1CCCN1C(=O)[C@H](CCCCN)NC(=O)[C@H](CC(=O)O)NC(=O)[C@@H](N)C(C)C)C(=O)N[C@@H](Cc1ccc(O)cc1)C(=O)N[C@@H](CC(N)=O)C(=O)N[C@H](CCCNC(=N)N)C(N)=O", "technique": "broth microdilution", "strain": "DSM 1117", "time": "18 h", "MIC": "32 µg/mL"}
{"SMILES": "CC(C)C[C@@H]1NC(=O)[C@H](CCCCN)NC(=O)CSC[C@@H]2NC(=O)[C@H](CC(C)C)NC(=O)[C@H](CC(C)C)NC(=O)[C@H](CCCCN)NC(=O)[C@H](CCCCNC(=O)[C@H](CCCCN)NC1=O)NC(=O)[C@H](CCCCN)NC(=O)[C@H](CC(C)C)NC(=O)[C@H](CCCCN)NC(=O)CSC[C@@H](C(=O)N[C@@H](CCCCN)C(N)=O)NC(=O)[C@H](CCCCN)NC(=O)[C@H](CC(C)C)NC(=O)[C@H](CC(C)C)NC2=O", "strain": "PAO1", "time": "18 h", "MIC": "> 256 µg/mL"}
{"SMILES": "CC[C@H](C)[C@H](NC(=O)[C@H](CCCCN)NC(=O)[C@H](CCC(=O)O)NC(=O)[C@H](CCCCN)NC(=O)[C@H](CO)NC(=O)[C@H](CCCCN)NC(=O)[C@H](CCCNC(=N)N)NC(=O)[C@H](Cc1ccccc1)NC(=O)[C@H](Cc1ccccc1)NC(=O)[C@H](CC(=O)O)NC(=O)CNC(=O)[C@H](CC(C)C)NC(=O)[C@@H](N)CC(C)C)C(=O)NCC(=O)N[C@@H](CCCCN)C(=O)N[C@@H](CCC(=O)O)C(=O)N[C@@H](Cc1ccccc1)C(=O)N[C@@H](CCCCN)C(=O)N[C@@H](CCCNC(=N)N)C(=O)N[C@H](C(=O)N[C@H](C(=O)N[C@@H](CCC(N)=O)C(=O)N[C@@H](CCCNC(=N)N)C(=O)N[C@H](C(=O)N[C@@H](CCCCN)C(=O)N[C@@H](CC(=O)O)C(=O)N[C@@H](Cc1ccccc1)C(=O)N[C@@H](CC(C)C)C(=O)N[C@@H](CCCNC(=N)N)C(=O)N[C@@H](CC(N)=O)C(=O)N[C@@H](CC(C)C)C(=O)N[C@H](C(=O)N1CCC[C@H]1C(=O)N[C@@H](CCCNC(=N)N)C(=O)N[C@H](C(=O)N[C@@H](CCC(=O)O)C(=O)N[C@@H](CO)C(=O)O)[C@@H](C)O)C(C)C)[C@@H](C)CC)C(C)C)[C@@H](C)CC", "strain": "PAO1 wild type", "matrix": "RPMI with 5% LB", "MIC": "16 µM"}
{"SMILES": "CC[C@H](C)[C@@H]1NC(=O)[C@H](CC(C)C)NC(=O)[C@@H](NC(=O)[C@H](CO)NC(=O)[C@H](CCCNC(=N)N)NC(=O)[C@@H](N)CO)CSSC[C@@H](C(=O)N[C@@H](CCC(N)=O)C(=O)N[C@@H](CCCNC(=N)N)C(=O)N[C@@H](CC(C)C)C(=O)N[C@@H](Cc2ccccc2)C(N)=O)NC(=O)[C@H](C(C)C)NC1=O", "technique": "broth microdilution", "strain": "ATCC 27853", "MIC": "> 100 µg/mL"}
{"SMILES": "CC(C)C[C@@H]1NC(=O)CSC[C@@H]2NC(=O)[C@H](CC(C)C)NC(=O)[C@H](CCCCN)NC(=O)[C@H](CCCCN)NC(=O)[C@H](CCCCNC(=O)[C@H](CCCCN)NC(=O)[C@H](CC(C)C)NC1=O)NC(=O)[C@H](CCCCN)NC(=O)[C@H](CC(C)C)NC(=O)[C@H](CC(C)C)NC(=O)CSC[C@@H](C(=O)N[C@@H](CCCCN)C(N)=O)NC(=O)[C@H](CC(C)C)NC(=O)[C@H](CC(C)C)NC(=O)[C@H](CC(C)C)NC2=O", "strain": "PAO1", "time": "18 h", "MIC": "128 µg/mL"}
{"note": "Some of these lines once more:"}
{"SMILES": "c1ccc(CCNC2CCCc3c2[nH]c2ccc(C4CCCCC4)cc32)cc1 (stereo not drawn)", "effect on": "microbial growth", "technique": "broth dilution", "strain": "ATCC10145", "MIC": "> 41 µg/mL"}
